Published values pooled from the literature.
Every numbered part comes from another study and shows a few of its results, in no order. Changes are numbered by the printed parent chain.

Study 1
Target: Histone acetyltransferase KAT6A, both winged helices, GST fusion (KAT6A, Homo sapiens, UniProt Q92794, residues 1-181)
Technique: protein binding microarray
Molecule type: double-stranded DNA, one strand shown
Matrix: in vitro
Concentration: not given
Notes: 8-mer, flanks averaged, mean of 2 arrays, mostly near background
Baseline: not given
Reading: higher = stronger binding
Quantity: E-score
Target sequence (chain): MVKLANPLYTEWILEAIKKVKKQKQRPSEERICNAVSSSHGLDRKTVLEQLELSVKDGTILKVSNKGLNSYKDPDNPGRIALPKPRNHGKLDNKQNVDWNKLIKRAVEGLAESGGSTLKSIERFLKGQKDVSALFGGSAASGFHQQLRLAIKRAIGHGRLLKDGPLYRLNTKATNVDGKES
Sequence = GCACGCCC; value = 0.155
Sequence = GCAACGGA; value = 0.239
Sequence = CTCGGGTC; value = 0.171
Sequence = GGTCTCAC; value = 0.0139
Sequence = CGCTGGAC; value = 0.0688
Sequence = ACTCGAAT; value = -0.2
Sequence = ATGTTATG; value = -0.0341
Sequence = TCCGCGAA; value = 0.246
Sequence = TCTCAACA; value = -0.0446
Sequence = ACTAACAT; value = -0.0604

Study 2
Target: MAFK, bZIP domain (human)
Technique: DHFR protein complementation
Matrix: yeast
Notes: single substitutions, most at no-binding floor
Baseline: wild-type JUN-FOS pair
Reading: higher = stronger binding
Quantity: binding fitness
Starting sequence: JUN, bZIP domain (human); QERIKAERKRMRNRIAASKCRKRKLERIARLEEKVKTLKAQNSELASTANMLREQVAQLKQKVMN; partner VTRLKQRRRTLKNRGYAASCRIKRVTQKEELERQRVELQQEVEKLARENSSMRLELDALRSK
Variant = A29S; value = -1.53 natural log
Variant = A49P; value = -1.51 natural log
Variant = L59T; value = -1.55 natural log
Variant = E54V; value = -1.4 natural log

Study 3
Target: RNA binding protein fox-1 homolog 2, RRM domain, GST-SBP tag (RBFOX2, Homo sapiens, UniProt O43251-10, residues 100-194)
Technique: RNA Bind-n-Seq
Molecule type: RNA
Matrix: in vitro
Concentration: 365 nM
Notes: natural RNA segment, single round, ends assumed
Baseline: no-protein control
Reading: higher = stronger binding
Quantity: RBNS enrichment (R)
Shared flanks, not repeated: GGGAGUUCUACAGUCCGACGAUC … UGGAAUUCUCGGGUGCCAA
Construct (chain): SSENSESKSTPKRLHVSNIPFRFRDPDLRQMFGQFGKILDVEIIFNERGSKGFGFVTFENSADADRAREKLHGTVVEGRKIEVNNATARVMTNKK
Sequence = GUGGCUCCAGCUGCCCACCAUUCUCACUCUUCUCCUCCCAAGCCACCGGGGUCAGGUCUCUCAUCUUAAGAAGUUCCCUCUAAAAUGAAAGGUUGUGUAAGAGGAAAGCC; value = 0.653
Sequence = CAUAGAUUUAGUCAGAAGCUGUUUUACUCUCUUAUCUUACAUUCUAUCUAGCUUCCAUAAUUUAUACCAGAACAAAAUGUUUUAGCCAGUUUGUUUCUACAUACCUAUGA; value = 0.35
Sequence = UUUCCCACUACUCCCUUACUGUCUUUUAGCAUUCAGAGAAAAAGCCAACUUGCUUAAAGAGGAAUCACUUAAAAGGUAGGCAUAUCUAAGAUGCUCAUAGAAGAGGAAGA; value = 0.379
Sequence = UGGCUGCCCUUCUCAUUUAAGGACAUGAGUUCACUGGAGUAUUACUCAAAAAGUCUGUGGUUCAUUUCCAGUAUUGUGAAUAUUUAGUUUAUGUGGCCGUUUCUUUGUUU; value = 0.441
Sequence = CAAAUGAUUUUCUAACUUAGUGUUAGGAGAAAUUAUUUUCCAUCUUUAACCUCUUAGUUGUCUAAGAGUUAAAUAUUACUGAAUUUCAGACGUUCAAAUUGAUCAUCACA; value = 0.281
Sequence = UUCAAAGAAAAUAUUUUAAACCUGUGAAAACUCACUAAUUUUGUUAAUAUUUAUCAUGAUGGCAUCAUUUCAGCCAGACUCGCUGAGAAUCUAUUGGUGGGGCAAAUAUA; value = 0.417

Further values, each from its own experiment
Molecule = PhoQ, residues 284 288 289 292 302 303 SSCLAV; target = PhoP, residues 12 14 15 18 19 NQGLL (Escherichia coli, UniProt P23836); test = Sort-seq, refers to: YFP reporter; test system = E. coli; setting = PhoQ-PhoP variant library, with: 10 µM Mg2+; how to read = baseline: high Mg2+ state, higher = stronger signaling; quantity = fold induction; value = 6.48

Repeated from above (study 3):
Sequence = UUUCCCACUACUCCCUUACUGUCUUUUAGCAUUCAGAGAAAAAGCCAACUUGCUUAAAGAGGAAUCACUUAAAAGGUAGGCAUAUCUAAGAUGCUCAUAGAAGAGGAAGA; value = 0.379
Sequence = UGGCUGCCCUUCUCAUUUAAGGACAUGAGUUCACUGGAGUAUUACUCAAAAAGUCUGUGGUUCAUUUCCAGUAUUGUGAAUAUUUAGUUUAUGUGGCCGUUUCUUUGUUU; value = 0.441
